Assay results collected from several papers.
Values joined by “and” are separate records of one study, mostly repeats; a detail may differ. Numbers after ± are the reported error.
Cell line: A549

SMILES	assay	conditions	IC50
C=C1C[C@](OC)([C@H](OCOC/C=C/B2OC(CC)(CC)C(CC)(CC)O2)C(=O)NC[C@@H]2C[C@@H](OC)C(C)(C)[C@@H](C[C@@H](COC)OC)O2)O[C@H](C)[C@@H]1C	cell viability, sulforhodamine B	72 h, 37 °C, together with: 100 µM H2O2	24 ± 12 nM
Cc1nc(N(Cc2ccccc2)c2ccc3c(c2)/C(=C/c2ccccc2)C(=O)N3Cc2ccccc2)c2ccccc2n1 (mixture of isomers)	cell viability, MTT	–	200 to 980 nM
CCN(CC)CCCC(C)Nc1ccnc2cc(Cl)ccc12 (stereo not drawn)	cell viability, alamarBlue	6 h, OptiMEM, then DMEM 42 h	474000 nM
CC(O)[C@@H]1CCCN1C(=O)[C@@H]1CCCN1C(=O)OC(C)(C)C (mixture of isomers)	cell growth, sulforhodamine B	–	590 nM and 515 nM
COc1cc(C2=CCCc3c2ccc(OC)c3OCc2ccc([N+](=O)[O-])o2)cc(OC)c1OC	–	4 h, anoxic	30 ± 6 nM
COc1ccc2nccc(Cc3cccc(-c4ccc(COP(=O)(O)O)cc4)c3)c2c1	mitochondrial oxygen consumption, Seahorse XF96	–	3000 nM
COc1ccc2c(c1NC(=O)OCc1cnc([N+](=O)[O-])n1C)CCC=C2c1cc(OC)c(OC)c(OC)c1	–	4 h, anoxic	2540 ± 630 nM
COc1ccc(-c2cc(-c3ccc(-n4cccc4)cc3)nc(N)n2)cc1	viability, MTT	24 h	105000 nM
COc1cc(C2=CCCc3c2ccc(OC)c3OC(C)c2ccc([N+](=O)[O-])s2)cc(OC)c1OC (stereo not drawn)	–	4 h, anoxic	860 ± 420 nM
COc1ccc(Cc2nccc3cc(OC)c(OC)cc23)cc1OC	mitochondrial oxygen consumption, Seahorse XF96	–	18000 nM
C#CCCCC[C@H](C)C[C@@H](C)C(=O)O	cell growth, sulforhodamine B	–	142000 nM and 176000 nM and 181000 nM
Nc1ncc(-c2cnn(C3CCNCC3)c2)cc1-c1nnc(CC2CC2)o1	inhibitor, Western blot, item: phospho-Akt	–	170 nM

Repeated from above:
SMILES	assay	conditions	IC50
COc1ccc2c(c1NC(=O)OCc1cnc([N+](=O)[O-])n1C)CCC=C2c1cc(OC)c(OC)c(OC)c1	–	4 h, anoxic	2540 ± 630 nM
COc1ccc2nccc(Cc3cccc(-c4ccc(COP(=O)(O)O)cc4)c3)c2c1	mitochondrial oxygen consumption, Seahorse XF96	–	3000 nM
